Measured values gathered from unrelated publications.
Several values in a cell are separate wells, animals, samples, runs or records. ± gives the spread as reported.
KAI2: KAI2 (Arabidopsis thaliana, UniProt Q9SZU7)
Chain of UniProt Q9SZU7 (whole entry, unmodified, looked up): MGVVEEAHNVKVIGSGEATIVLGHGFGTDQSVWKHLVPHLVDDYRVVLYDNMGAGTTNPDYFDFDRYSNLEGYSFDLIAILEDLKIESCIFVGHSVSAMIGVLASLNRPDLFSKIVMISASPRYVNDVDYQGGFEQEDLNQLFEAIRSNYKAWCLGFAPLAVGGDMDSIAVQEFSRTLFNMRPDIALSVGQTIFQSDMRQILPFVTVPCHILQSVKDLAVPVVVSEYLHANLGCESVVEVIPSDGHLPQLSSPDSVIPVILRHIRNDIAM
FKBP5: Peptidyl-prolyl cis-trans isomerase FKBP5 (FKBP5, Homo sapiens, UniProt Q13451)
Chain of UniProt Q13451 (whole entry, looked up): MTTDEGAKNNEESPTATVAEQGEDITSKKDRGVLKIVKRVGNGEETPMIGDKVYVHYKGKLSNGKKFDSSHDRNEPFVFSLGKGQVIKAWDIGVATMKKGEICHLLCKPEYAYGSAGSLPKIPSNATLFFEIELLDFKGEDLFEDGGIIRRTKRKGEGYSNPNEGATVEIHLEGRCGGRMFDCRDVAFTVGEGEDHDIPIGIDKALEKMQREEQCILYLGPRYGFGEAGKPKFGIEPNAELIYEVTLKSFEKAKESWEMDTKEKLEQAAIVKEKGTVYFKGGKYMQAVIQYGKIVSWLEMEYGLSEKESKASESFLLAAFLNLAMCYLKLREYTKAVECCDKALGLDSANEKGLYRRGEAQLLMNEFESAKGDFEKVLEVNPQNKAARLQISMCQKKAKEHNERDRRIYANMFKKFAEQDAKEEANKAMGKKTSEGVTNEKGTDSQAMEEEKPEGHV
CA2: Carbonic anhydrase 2 (CA2, Bos taurus, UniProt P00921)
Chain of UniProt P00921 (whole entry, looked up): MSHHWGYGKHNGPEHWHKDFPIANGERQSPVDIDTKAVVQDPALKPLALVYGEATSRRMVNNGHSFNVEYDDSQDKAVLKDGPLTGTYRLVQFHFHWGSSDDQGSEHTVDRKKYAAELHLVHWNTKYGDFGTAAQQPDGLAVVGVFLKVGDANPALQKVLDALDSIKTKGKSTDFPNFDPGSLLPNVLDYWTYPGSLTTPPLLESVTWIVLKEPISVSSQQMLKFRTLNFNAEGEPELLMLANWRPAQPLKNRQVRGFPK
Chain of UniProt Q01201 (whole entry, looked up): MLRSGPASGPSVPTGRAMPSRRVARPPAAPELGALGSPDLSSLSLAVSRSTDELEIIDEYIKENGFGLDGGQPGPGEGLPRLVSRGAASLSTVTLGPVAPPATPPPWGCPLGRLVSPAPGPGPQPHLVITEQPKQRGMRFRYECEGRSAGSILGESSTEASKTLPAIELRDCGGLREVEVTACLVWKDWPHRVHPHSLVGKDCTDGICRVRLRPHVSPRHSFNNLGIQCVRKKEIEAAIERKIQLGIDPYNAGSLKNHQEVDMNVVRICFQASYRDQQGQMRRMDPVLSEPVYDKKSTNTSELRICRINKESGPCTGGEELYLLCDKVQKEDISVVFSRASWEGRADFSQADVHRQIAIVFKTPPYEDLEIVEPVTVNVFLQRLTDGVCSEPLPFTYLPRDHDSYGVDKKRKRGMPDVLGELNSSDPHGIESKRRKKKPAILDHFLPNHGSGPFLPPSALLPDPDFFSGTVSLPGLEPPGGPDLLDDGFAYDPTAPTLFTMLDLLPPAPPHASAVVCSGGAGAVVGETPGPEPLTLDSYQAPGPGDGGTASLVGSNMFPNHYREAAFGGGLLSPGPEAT
Chain of UniProt P19484 (whole entry, looked up): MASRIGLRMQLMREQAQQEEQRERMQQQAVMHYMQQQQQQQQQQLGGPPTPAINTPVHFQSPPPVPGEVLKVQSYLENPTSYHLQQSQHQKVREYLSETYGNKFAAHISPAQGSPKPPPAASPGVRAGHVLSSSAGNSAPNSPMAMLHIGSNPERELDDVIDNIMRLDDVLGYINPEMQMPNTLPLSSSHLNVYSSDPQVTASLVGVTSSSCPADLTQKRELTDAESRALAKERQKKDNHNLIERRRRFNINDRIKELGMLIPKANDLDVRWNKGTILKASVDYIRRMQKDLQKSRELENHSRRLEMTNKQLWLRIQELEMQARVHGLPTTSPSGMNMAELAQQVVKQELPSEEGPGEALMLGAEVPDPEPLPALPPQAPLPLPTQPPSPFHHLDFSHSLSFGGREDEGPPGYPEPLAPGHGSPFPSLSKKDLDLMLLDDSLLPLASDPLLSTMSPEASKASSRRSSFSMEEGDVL
Chain of UniProt O75030 (whole entry, looked up): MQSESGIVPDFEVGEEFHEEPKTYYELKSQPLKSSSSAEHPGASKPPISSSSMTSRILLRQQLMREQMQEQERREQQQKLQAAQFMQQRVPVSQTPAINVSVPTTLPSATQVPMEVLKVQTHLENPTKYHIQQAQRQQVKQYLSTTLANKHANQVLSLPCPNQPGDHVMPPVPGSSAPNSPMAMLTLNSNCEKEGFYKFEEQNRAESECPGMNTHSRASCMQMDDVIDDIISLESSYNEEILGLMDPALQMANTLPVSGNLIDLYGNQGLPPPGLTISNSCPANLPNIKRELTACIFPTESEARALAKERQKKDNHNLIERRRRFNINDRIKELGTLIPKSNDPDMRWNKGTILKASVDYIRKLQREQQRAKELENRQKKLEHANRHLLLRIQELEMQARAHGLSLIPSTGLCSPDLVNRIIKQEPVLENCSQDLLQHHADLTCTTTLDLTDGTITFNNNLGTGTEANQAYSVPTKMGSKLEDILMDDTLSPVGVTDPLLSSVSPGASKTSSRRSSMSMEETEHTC
Chain of UniProt Q91XB0 (whole entry, looked up): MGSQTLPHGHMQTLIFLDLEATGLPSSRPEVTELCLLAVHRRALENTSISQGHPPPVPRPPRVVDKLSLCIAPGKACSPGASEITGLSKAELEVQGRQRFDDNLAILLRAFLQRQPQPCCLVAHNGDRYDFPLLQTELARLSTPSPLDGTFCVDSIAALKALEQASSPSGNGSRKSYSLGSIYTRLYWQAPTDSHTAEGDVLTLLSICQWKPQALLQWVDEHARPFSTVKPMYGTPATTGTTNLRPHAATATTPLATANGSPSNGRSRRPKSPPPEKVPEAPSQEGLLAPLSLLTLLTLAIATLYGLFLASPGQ
Chain of UniProt P31725 (whole entry, looked up): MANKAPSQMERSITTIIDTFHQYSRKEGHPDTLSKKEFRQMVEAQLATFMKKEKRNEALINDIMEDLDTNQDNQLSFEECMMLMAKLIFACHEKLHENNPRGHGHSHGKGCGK

SMILES | tested on | assay | test system | setting | how to read | endpoint | value
O=C(N1CCc2cccc(Cl)c21)n1ccnn1 | KAI2 | binding, ITC |  |  |  | Kd | 179 µM
CC1=NN(c2ccccc2)C(=O)C1 | Protein S100-A9 (S100a9, Mus musculus, UniProt P31725) | SPR |  | 4 °C, compound immobilised |  | Kd | 0.0168 µM
COC1CN([C@H]2CC[C@H]([C@@]3(C)Oc4c(Cl)cc(C(=O)NCc5c(SC)cc(C)[nH]c5=O)c(C)c4O3)CC2)C1 |  | RNA-seq, refers to: TRIM2 | human, whole blood | dose not given, 24 h | relative to: pretreatment baseline | log2 fold change | 1.77
C=CC(=O)N1C[C@H](C)N(c2nc(OC[C@@]34CCCN3C[C@H](F)C4)nc3c(F)c(-c4ccc(F)c5sc(N)c(C#N)c45)c(C(F)(F)F)cc23)C[C@H]1C | GTPase KRas, GppNHp-bound (KRAS, Homo sapiens, UniProt P01116, G13D) |  |  |  |  | Kd | 2.71 µM and 2.52 µM
O=C(c1ccco1)N1CCc2ccccc21 | KAI2 | isothermal titration calorimetry |  |  |  | Kd | 224 µM and 246 µM
O=C1C2CCCC(C(C(O)CO)CN1Cc1ccccn1)N2S(=O)(=Nc1ccccc1)c1cc(Cl)cc(Cl)c1 (stereo not drawn) | FKBP5 | ligand displacement, FP |  |  |  | Kd | > 40 µM
C=CC(=O)N1CCCN(C(=O)c2cc(Sc3cnc(NC(=O)C4CC4)s3)c(C)cc2OC)C[C@H]1C | Receptor tyrosine-protein kinase erbB-2 (ERBB2, Homo sapiens, UniProt P04626) | binding, competition with immobilised ligand |  |  |  | Kd | > 10 µM
C[n+]1c(/C=C/c2ccc(N(c3ccccc3)c3ccccc3)cc2)cc(/C=C2\Sc3ccccc3N2CCCN2CCCC2)c2ccccc21 | Pu27 DNA | isothermal titration calorimetry |  | pH 7.4, 25 °C, 2% DMSO |  | Kd | 2.53 µM
Cc1cccc2c1N(C(=O)n1ccnn1)CC2 | KAI2 (Arabidopsis thaliana, UniProt Q9SZU7, A219S) | ITC |  | A219S mutant |  | Kd | 10.3 µM and 18.6 µM and 13.2 µM
C=CC1CN(Cc2ccccn2)C(=O)C2CCCC1N2S(=O)(=NC1C=CCCC1)c1cc(Cl)cc(Cl)c1 (mixture of isomers) | FKBP5 | ligand displacement, FP |  |  |  | Kd | > 40 µM
CN(C)c1ccc2c(c1)C(=O)N(CCc1ccc(S(N)(=O)=O)cc1)C2=O | CA2 | binding |  |  |  | Kd | 0.49 µM
Cc1cccc2c1N(C(=O)n1nccn1)CC2 | KAI2 | isothermal titration calorimetry |  |  |  | Kd | 248 µM and 214 µM and 168 µM
Cc1cc(C#CC2(O)CCCCC2)cc2c1cc(C(=O)O)n2-c1cccc(Cl)c1 | Microphthalmia-associated transcription factor (Homo sapiens, UniProt O75030) | binding, ITC |  |  |  | Kd | 0.385 µM
CNC[C@H](O)c1ccc(O)c(O)c1 | chemotaxis protein CheW (Vibrio campbellii, UniProt A0A0A3EMQ5) | binding, microscale thermophoresis | PBS with 0.05% Tween 20 | room temperature, His-tagged protein, labelled |  | Kd | 0.68 ± 0.34 µM
O=C(Nc1ccc(C(=O)Nc2ccc3c(O)cc(S(=O)(=O)O)cc3c2)cc1)c1ccccc1 | Three-prime repair exonuclease 1 (Trex1, Mus musculus, UniProt Q91XB0) | binding, fluorescence |  |  |  | Kd | 39.1 µM
CC(C)(C)n1cc(CN(Cc2cn(CCOCCOCCOCCOCCOCCO)nn2)Cc2cn(C(C)(C)C)nn2)nn1 | Cu(I) | binding, bicinchoninic acid competition |  | 500 µM, with: bicinchoninic acid 40 µM |  | Kd | 0.00032 µM
C/C(=N\Nc1ncnc2sc3c(c12)CCCC3)c1cc(O)ccc1O | Transcription factor RelB (RELB, Homo sapiens, UniProt Q01201) | binding, microscale thermophoresis |  |  |  | Kd | 1.1 µM and 1.11 µM
CN(C)c1ccc2c(c1)C(=O)N(c1ccc(S(N)(=O)=O)cc1)C2=O | CA2 | binding |  |  |  | Kd | 0.24 µM
C=CC1CN(Cc2ccccn2)C(=O)C2CCCC1N2S(=O)(=O)c1cc(Cl)cc(Cl)c1 (stereo not drawn) | FKBP5 | ligand displacement, FP |  |  |  | Kd | 0.097 µM
Cc1ncsc1-c1ccc(C(C)NC(=O)C2CC(O)CN2C(=O)C(NC(=O)CCCCCCCCCCN2CCCC(Nc3ncc(Cl)c(Nc4ccccc4S(=O)(=O)C(C)C)n3)C2)C(C)(C)C)cc1 (stereo not drawn) | 22Rv1 | RNA-seq, refers to: ZSCAN26 mRNA |  | concentration not given | relative to: DMSO | log2 fold change | -1.81
O=C(N1CCc2ccccc21)n1ccnn1 | KAI2 | binding, ITC |  |  |  | Kd | 200 µM
CN(C)c1ccc2c(c1)C(=O)N(Cc1ccc(S(N)(=O)=O)cc1)C2=O | CA2 | binding |  |  |  | Kd | 0.13 µM
CC(C)(C)n1cc(CN(Cc2cn(CC(=O)O)nn2)Cc2cn(C(C)(C)C)nn2)nn1 | Cu(I) | binding, bicinchoninic acid competition |  | 2000 µM, with: bicinchoninic acid 40 µM |  | Kd | 0.000137 µM
C=CC(=O)N1CC2(CCN(c3nc(OC4CCN(CCCOC)CC4)nc4c(OCC(F)(F)F)c(-c5c(C)ccc6[nH]ncc56)c(C5CC5)cc34)CC2)C1 | GTPase KRas, GDP-bound (KRAS, Homo sapiens, UniProt P01116, Q61R) | binding, surface plasmon resonance |  |  |  | Kd | 0.618 ± 0.056 µM
C=C[C@H]1CN(Cc2ccccn2)C(=O)[C@@H]2CCC[C@H]1N2Sc1cc(Cl)cc(Cl)c1 | FKBP5 | ligand displacement, FP |  |  |  | Kd | > 40 µM
CC1=NN(c2ccc(C)c(C)c2)C(=O)/C1=N\Nc1cccc(-c2cccc(C(=O)NCCOCCOCCNC(=O)CCCC[C@@H]3SC[C@@H]4NC(=O)N[C@@H]43)c2)c1O | Transcription factor EB, bHLH-LZ domain (TFEB, Homo sapiens, UniProt P19484) | binding, SPR |  | compound immobilised on SA chip |  | Kd | 0.304 µM
O=C(N1CCc2ccccc21)n1nccn1 | KAI2 | isothermal titration calorimetry |  |  |  | Kd | 358 µM and 227 µM and 362 µM

For quick reference, copied from above:
SMILES | tested on | assay | test system | setting | how to read | endpoint | value
Cc1cccc2c1N(C(=O)n1nccn1)CC2 | KAI2 | isothermal titration calorimetry |  |  |  | Kd | 248 µM and 214 µM and 168 µM
CN(C)c1ccc2c(c1)C(=O)N(c1ccc(S(N)(=O)=O)cc1)C2=O | CA2 | binding |  |  |  | Kd | 0.24 µM
CC1=NN(c2ccc(C)c(C)c2)C(=O)/C1=N\Nc1cccc(-c2cccc(C(=O)NCCOCCOCCNC(=O)CCCC[C@@H]3SC[C@@H]4NC(=O)N[C@@H]43)c2)c1O | Transcription factor EB, bHLH-LZ domain (TFEB, Homo sapiens, UniProt P19484) | binding, SPR |  | compound immobilised on SA chip |  | Kd | 0.304 µM
O=C(N1CCc2cccc(Cl)c21)n1ccnn1 | KAI2 | binding, ITC |  |  |  | Kd | 179 µM
